Results pooled from the literature.
Numbered parts are unrelated; each lists some results of a single study. Changes are numbered by the printed parent chain.
Chain of UniProt Q01959 (whole entry, looked up): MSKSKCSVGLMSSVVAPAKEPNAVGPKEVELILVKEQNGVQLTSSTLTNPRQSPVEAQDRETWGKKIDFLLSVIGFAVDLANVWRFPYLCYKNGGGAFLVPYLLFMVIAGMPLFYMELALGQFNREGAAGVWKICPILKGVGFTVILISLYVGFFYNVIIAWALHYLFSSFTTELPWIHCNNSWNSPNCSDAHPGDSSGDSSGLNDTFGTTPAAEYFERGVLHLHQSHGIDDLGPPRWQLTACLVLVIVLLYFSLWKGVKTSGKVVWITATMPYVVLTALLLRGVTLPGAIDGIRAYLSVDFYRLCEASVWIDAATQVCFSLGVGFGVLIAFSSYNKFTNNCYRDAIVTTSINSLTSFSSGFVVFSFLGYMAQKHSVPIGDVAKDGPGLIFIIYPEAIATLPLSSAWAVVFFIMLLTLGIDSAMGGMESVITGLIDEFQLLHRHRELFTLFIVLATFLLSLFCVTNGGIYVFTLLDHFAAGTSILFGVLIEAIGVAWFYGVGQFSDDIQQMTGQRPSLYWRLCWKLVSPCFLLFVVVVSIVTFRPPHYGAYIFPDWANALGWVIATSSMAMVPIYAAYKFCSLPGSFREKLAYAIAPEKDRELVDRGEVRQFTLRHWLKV

Study 1 — target: vanadate, free oxyanion; method: microfluidic competitive inhibition; matrix: in vitro, cell-free expressed; concentration: not given; reading: lower = stronger binding
Setting: derived from inhibition constants, unchanged parent 676 nM
Parent: PafA, mature enzyme, eGFP fusion (Elizabethkingia meningoseptica, UniProt Q9KJX5); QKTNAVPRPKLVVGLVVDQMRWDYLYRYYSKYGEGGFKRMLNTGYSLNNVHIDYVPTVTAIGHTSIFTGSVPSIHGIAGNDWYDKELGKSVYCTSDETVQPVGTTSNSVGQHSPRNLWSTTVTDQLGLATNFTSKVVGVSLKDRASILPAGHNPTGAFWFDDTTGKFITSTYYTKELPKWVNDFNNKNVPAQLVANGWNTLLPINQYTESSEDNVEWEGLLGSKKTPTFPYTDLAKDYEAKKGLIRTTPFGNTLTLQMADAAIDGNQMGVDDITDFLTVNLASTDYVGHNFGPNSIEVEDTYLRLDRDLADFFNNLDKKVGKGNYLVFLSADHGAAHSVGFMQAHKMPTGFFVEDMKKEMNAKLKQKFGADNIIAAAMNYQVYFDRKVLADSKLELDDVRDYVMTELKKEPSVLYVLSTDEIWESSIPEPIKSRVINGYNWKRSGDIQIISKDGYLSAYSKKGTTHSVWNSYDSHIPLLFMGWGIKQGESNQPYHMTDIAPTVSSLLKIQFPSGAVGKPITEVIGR
Substitution | oxyanion analog dissociation constant
S70G | 558 nM
P293G | 711 nM
V516A | 763 nM
D385V | 729 nM
A60G | 1.05 µM
S460G | 710 nM
K432G | 759 nM
R304V | 818 nM

Study 2 — read-out: binding; method: phage display NGS; form: peptide; relative to: input library
Target: UDP-N-acetylglucosamine--peptide N-acetylglucosaminyltransferase 110 kDa subunit (OGT, Homo sapiens, UniProt O15294)
Chain of UniProt O15294 (whole entry, looked up): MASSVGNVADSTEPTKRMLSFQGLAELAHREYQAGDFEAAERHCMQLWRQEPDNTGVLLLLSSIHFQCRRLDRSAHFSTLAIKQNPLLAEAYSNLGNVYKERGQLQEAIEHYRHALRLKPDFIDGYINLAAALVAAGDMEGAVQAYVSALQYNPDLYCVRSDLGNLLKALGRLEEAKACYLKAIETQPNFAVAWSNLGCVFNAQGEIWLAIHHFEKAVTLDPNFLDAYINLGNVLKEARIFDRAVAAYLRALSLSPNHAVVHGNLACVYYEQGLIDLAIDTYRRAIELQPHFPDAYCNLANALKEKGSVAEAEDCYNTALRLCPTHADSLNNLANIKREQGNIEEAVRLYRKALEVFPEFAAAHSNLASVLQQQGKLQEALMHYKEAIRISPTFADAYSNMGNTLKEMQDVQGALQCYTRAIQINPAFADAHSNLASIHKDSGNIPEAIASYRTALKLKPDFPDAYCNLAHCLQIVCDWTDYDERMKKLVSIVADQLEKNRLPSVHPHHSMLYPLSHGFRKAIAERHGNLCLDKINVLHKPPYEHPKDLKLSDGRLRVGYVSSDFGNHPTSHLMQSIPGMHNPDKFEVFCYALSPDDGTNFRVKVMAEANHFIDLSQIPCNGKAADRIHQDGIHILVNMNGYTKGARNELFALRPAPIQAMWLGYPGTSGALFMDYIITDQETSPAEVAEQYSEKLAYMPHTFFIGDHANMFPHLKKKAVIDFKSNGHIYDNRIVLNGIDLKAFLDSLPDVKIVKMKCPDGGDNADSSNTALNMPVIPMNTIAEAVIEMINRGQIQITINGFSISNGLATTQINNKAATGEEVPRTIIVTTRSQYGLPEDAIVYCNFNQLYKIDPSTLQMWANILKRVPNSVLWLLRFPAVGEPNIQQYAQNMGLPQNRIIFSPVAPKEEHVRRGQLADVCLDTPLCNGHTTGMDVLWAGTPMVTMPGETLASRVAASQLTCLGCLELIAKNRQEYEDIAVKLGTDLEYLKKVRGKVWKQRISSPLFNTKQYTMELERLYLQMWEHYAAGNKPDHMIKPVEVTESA
Sequence | minimum log2 enrichment ratio
NAFFLPAYQIPIVQA | 4.46
RFNADHHYHDHHIVA | 2.29
FMPMYEIKYAKREDN | 4.33
HGQQMKNPHHHHPMW | 3.72
HTASQPQHTYWHRTQ | 1.3
HRNTVQHWQQVYPIH | 2.35
HIYPRHQHSFEPVK | 3.34
HSYHHDTVITHNTHH | 2.92

Study 3 — target: CCNB2, cyclin fold, Cln2 fusion (human); method: yeast growth competition, sequencing; matrix: yeast; setting: strong parent motif; relative to: not given; reading: higher = stronger binding; parent: viral docking peptide; YKVKRRLVFGADD
Substitution | normalised enrichment score
R6Y | 1.08
V8D | 3.58
K2Y | 1.38
R6N | 0.562
R5E | 0.473
K4F | -0.386
F9A | -0.0964
V8K | 1.46

Single results of other studies
SMILES | target | test | conditions | quantity | value
CNC(=O)c1cc(C(=O)N[C@H]2[C@@H]3COC[C@@H]32)cc2c1O[C@H](CF)[C@H]2c1ccccc1 | Sodium-dependent dopamine transporter (SLC6A3, Homo sapiens, UniProt Q01959) | binding, radioligand binding | 10 µM | inhibition | -16.9%

Repeated from above (study 2):
Sequence | minimum log2 enrichment ratio
HSYHHDTVITHNTHH | 2.92
HGQQMKNPHHHHPMW | 3.72
HRNTVQHWQQVYPIH | 2.35
RFNADHHYHDHHIVA | 2.29
